Measured values gathered from unrelated publications.
Each numbered part is a random draw from the data of one study; scales do not carry over between parts. Changes are numbered by the printed parent chain.

Series 1
Target: CCNB1, cyclin fold, Cln2 fusion (human)
Method: yeast growth competition, sequencing
Medium: yeast
Notes: strong parent motif
Relative to: not given
Direction: higher = stronger binding
Starting sequence: viral docking peptide; TSVRRALFTGGSD; partner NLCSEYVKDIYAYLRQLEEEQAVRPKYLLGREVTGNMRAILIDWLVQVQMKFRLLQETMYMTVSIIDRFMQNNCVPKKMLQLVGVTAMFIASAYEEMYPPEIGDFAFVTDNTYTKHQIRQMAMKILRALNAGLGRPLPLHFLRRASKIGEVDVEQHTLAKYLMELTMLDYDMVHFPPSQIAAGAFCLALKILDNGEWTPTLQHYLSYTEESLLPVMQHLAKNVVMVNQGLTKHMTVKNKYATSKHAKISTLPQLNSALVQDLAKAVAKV
| Variant | normalised enrichment score |
| --- | --- |
| G11F | 1.71 |
| G11W | 0.948 |
| T9E | 2.04 |
| S2F | 1.48 |

Series 2
Target: TAR DNA-binding protein 43, full length, His tag (TARDBP, Homo sapiens, UniProt Q13148, residues 1-414)
Method: RNA Bind-n-Seq
Form: RNA
Medium: in vitro
Tested at: 20 nM
Notes: 6-mer, flanks averaged, single round
With: 150 mM LiCl
Relative to: input library
Direction: higher = stronger binding
| Oligonucleotide | 6-mer enrichment (R) |
| --- | --- |
| UCAGCA | 0.827 |
| CAGAUG | 0.892 |
| GGCUAG | 1.03 |
| ACCGCU | 0.887 |
| GGCUCG | 0.948 |
| UCGCGU | 0.982 |
| CCGCGG | 0.967 |
| UUACGG | 0.93 |

Series 3
Target: UDP-N-acetylglucosamine--peptide N-acetylglucosaminyltransferase 110 kDa subunit (OGT, Homo sapiens, UniProt O15294)
Sequence of UniProt O15294 (whole entry, looked up): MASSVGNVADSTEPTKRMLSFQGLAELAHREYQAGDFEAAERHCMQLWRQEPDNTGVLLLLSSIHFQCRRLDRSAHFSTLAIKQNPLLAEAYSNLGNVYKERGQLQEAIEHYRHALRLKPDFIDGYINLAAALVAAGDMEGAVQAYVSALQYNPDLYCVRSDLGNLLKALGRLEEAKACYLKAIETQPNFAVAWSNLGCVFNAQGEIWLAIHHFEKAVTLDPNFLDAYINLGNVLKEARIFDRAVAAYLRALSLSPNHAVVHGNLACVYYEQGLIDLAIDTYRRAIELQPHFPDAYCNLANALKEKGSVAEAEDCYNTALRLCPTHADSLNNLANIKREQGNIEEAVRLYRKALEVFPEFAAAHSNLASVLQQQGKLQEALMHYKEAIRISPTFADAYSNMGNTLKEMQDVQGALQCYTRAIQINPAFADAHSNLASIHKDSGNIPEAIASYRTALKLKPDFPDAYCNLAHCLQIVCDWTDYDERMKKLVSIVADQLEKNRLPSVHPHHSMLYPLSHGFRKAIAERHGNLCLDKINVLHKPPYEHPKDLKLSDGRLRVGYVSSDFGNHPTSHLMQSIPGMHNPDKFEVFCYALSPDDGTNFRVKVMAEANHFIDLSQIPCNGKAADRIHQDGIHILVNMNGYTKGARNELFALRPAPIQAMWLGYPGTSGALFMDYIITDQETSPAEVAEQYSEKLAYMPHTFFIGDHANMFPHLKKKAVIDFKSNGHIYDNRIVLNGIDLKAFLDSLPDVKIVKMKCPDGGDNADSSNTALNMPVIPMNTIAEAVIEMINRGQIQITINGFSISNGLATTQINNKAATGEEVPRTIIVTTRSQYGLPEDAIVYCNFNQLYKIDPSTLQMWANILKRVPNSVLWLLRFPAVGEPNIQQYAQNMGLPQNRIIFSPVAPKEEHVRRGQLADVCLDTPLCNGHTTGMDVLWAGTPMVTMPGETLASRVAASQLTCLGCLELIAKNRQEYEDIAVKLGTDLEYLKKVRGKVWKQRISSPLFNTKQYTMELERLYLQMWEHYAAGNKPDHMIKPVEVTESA
Read-out: binding
Method: phage display NGS
Form: peptide
Tested at: concentration not given
Notes: panning round 2
Relative to: input library
| Molecule | enrichment fold change |
| --- | --- |
| HIHQHIHQEEQWDYH | 5.23 |
| SPWHHMHHHPTDSVA | 4.71 |
| SFLKYQPKYPIVYNV | 14.4 |

Series 4
Target: tungstate, free oxyanion
Method: microfluidic competitive inhibition
Medium: in vitro, cell-free expressed
Tested at: not given
Notes: derived from inhibition constants, unchanged parent 2230 nM
Direction: lower = stronger binding
Starting sequence: PafA, mature enzyme, eGFP fusion (Elizabethkingia meningoseptica, UniProt Q9KJX5); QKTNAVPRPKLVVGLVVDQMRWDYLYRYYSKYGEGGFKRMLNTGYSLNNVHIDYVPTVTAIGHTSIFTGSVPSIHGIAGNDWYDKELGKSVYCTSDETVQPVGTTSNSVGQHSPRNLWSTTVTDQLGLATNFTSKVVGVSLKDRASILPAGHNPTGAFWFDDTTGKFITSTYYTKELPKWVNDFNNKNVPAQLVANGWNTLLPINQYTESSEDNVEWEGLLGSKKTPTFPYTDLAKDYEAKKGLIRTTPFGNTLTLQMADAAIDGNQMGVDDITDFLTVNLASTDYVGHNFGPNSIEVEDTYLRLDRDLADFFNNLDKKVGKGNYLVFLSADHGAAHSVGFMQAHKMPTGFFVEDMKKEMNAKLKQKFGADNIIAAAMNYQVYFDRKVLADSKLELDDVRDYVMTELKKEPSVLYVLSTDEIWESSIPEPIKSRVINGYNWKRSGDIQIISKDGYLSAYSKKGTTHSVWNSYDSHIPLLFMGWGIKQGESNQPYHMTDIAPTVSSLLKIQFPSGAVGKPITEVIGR
| Variant | oxyanion analog dissociation constant |
| --- | --- |
| Y302V | 3.67 µM |
| P154V | 860 nM |
| M404G | 1.85 µM |
| S338G | 1.78 µM |
| F511G | 2.24 µM |

A few entries again (series 2):
| Oligonucleotide | 6-mer enrichment (R) |
| --- | --- |
| CCGCGG | 0.967 |
| GGCUCG | 0.948 |
